Results pooled from the literature.
Each numbered part is a random draw from the data of one study; scales do not carry over between parts. Substitutions count along the parent as printed.

Set 1 — target: inorganic phosphate, free oxyanion; method: microfluidic competitive inhibition; matrix: in vitro, cell-free expressed; concentration: not given; reading: lower = stronger binding
Setting: derived from inhibition constants, unchanged parent 615000 nM
Parent: PafA, mature enzyme, eGFP fusion (Elizabethkingia meningoseptica, UniProt Q9KJX5); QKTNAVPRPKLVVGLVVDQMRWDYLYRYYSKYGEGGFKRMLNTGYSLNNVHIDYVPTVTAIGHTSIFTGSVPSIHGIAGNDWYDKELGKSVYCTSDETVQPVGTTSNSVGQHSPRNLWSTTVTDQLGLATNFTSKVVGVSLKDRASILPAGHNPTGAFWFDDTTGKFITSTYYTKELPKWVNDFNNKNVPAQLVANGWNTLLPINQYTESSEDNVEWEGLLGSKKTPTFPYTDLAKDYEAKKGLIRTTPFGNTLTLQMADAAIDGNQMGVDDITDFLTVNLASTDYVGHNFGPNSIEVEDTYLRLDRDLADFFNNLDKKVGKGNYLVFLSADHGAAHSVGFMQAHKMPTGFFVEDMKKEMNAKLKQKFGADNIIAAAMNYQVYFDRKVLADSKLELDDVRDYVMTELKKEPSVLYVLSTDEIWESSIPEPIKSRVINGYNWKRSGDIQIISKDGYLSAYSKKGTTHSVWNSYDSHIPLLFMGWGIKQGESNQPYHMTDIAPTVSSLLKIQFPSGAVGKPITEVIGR
`R39V`: “phosphate dissociation constant” 493 µM.
Under “phosphate dissociation constant”, `E86G` is recorded as 537 µM.
`K242G`: “phosphate dissociation constant” 460 µM.
For `N372V`, “phosphate dissociation constant” read 629 µM.
`N280V` — result for “phosphate dissociation constant”: 509 µM.
`G292A`: “phosphate dissociation constant” 557 µM.
`D260V` — result for “phosphate dissociation constant”: 574 µM.
Under “phosphate dissociation constant”, `G138A` is recorded as 547 µM.
`L148G` — result for “phosphate dissociation constant”: 257 µM.
Under “phosphate dissociation constant”, `S73V` is recorded as 347 µM.
Under “phosphate dissociation constant”, `K318V` is recorded as 652 µM.
`D300G`: “phosphate dissociation constant” 363 µM.
Under “phosphate dissociation constant”, `Q100G` is recorded as 564 µM.
`K408V`: “phosphate dissociation constant” 564 µM.

Set 2 — method: protein binding microarray; molecule type: double-stranded DNA, one strand shown; matrix: in vitro; concentration: not given; reference: not given; reading: higher = stronger binding
Target: Histone acetyltransferase KAT6A, both winged helices, GST fusion (KAT6A, Homo sapiens, UniProt Q92794, residues 1-181)
Setting: 8-mer, flanks averaged, mean of 2 arrays, mostly near background
Residues (chain): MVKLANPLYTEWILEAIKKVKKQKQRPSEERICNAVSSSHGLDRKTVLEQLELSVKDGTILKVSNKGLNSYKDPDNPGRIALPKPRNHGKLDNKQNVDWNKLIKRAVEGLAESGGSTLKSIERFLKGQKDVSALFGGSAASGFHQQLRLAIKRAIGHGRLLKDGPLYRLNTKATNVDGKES
The E-score of `CGGTGTGA` is reported as 0.0221.
For `ATCGTAGC`, the E-score was -0.0391.
The E-score of `ATACGTTG` is reported as -0.0174.
For `GCGAGGGA`, the E-score was 0.0268.
`AACCGTTG` has an E-score of 0.037.
`GATCCGGA` has an E-score of 0.0767.
The E-score of `AGTCTCAG` is reported as -0.204.
`AAATTGGC` has an E-score of -0.185.

Set 3 — method: aptamer microarray, sandwich; molecule type: DNA with 2'F-ANA; matrix: in vitro; concentration: 200 nM; added: Cy3 exosite-II aptamer, 400 nM; reading: higher = stronger binding; oligonucleotide: GGTTGGTGTGGTTGG
Target: Prothrombin, mature alpha-thrombin (F2, Homo sapiens, UniProt P00734)
Setting: whole 15-mer aptamer, many near background
`2'F-ANA at 1 3 4 7 12 13 14 15`: “mean fluorescence intensity” 92 a.u.
Under “mean fluorescence intensity”, `2'F-ANA at 2 7 8 10 12 13` is recorded as 183 a.u.
Under “mean fluorescence intensity”, `2'F-ANA at 1 2 4 5 10 13` is recorded as 44 a.u.
Under “mean fluorescence intensity”, `2'F-ANA at 1 2 5 6 7 8 9 11 12 13 14` is recorded as 49 a.u.
`2'F-ANA at 3 5 6 8 9 10 12 13`: “mean fluorescence intensity” 55.7 a.u.
`2'F-ANA at 1 8 9 12 13 14` — result for “mean fluorescence intensity”: 95.2 a.u.
`2'F-ANA at 2 4 5 6 7 13 14`: “mean fluorescence intensity” 51.8 a.u.
`2'F-ANA at 2 4 5 6 9 12 13 15` — result for “mean fluorescence intensity”: 81.2 a.u.

Further values, each from its own experiment
The binding score of `AAAVRKPIVLKR` is reported as -0.0959 (Saccharomyces cerevisiae; peptide binding, yeast competitive growth sequencing; peptide, cyclin F-Cln2 fusion; concentration not given, tiling library, Cln2-subtracted; direction not given).

Excerpt of the above (further values, each from its own experiment):
The binding score of `AAAVRKPIVLKR` is reported as -0.0959 (Saccharomyces cerevisiae; peptide binding, yeast competitive growth sequencing; peptide, cyclin F-Cln2 fusion; concentration not given, tiling library, Cln2-subtracted; direction not given).
